{"data": "Measured values gathered from unrelated publications", "target": "Ephrin type-A receptor 5 (EPHA5, Homo sapiens, UniProt P54756)", "note": "Compare with care: the assays were run in different laboratories.", "sequence of UniProt P54756 (whole entry, looked up)": "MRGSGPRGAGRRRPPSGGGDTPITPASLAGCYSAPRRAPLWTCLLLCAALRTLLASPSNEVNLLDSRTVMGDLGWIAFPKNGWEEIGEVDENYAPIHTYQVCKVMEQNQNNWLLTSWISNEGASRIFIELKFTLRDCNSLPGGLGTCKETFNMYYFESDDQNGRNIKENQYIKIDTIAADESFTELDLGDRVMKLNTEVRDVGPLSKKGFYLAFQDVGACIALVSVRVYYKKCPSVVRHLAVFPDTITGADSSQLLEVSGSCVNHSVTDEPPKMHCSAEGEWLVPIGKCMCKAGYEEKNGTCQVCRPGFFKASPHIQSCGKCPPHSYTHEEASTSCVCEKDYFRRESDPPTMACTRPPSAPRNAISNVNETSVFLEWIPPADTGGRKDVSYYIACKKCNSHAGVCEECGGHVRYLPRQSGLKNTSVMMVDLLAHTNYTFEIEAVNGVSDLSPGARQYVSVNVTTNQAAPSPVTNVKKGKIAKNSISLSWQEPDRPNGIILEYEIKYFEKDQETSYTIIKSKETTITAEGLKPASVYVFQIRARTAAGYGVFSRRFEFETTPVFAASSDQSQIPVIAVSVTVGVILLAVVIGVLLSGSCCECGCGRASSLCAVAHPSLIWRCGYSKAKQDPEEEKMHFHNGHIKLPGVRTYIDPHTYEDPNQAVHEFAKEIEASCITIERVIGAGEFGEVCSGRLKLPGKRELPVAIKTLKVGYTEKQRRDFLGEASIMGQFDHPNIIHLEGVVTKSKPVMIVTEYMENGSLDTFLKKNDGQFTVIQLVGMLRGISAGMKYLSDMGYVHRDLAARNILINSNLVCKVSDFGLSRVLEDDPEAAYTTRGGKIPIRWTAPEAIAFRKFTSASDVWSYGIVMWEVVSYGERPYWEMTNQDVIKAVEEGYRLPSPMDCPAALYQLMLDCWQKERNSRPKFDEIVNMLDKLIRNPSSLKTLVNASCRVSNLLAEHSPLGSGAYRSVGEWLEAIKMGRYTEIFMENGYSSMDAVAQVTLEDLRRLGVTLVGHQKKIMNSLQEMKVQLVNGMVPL"}
{"SMILES": "CCCOc1ccc(OC)c(F)c1C(=O)c1ccc(C(=O)N[C@@H]2CNC[C@H]2NC(=O)c2ccc3[nH]ncc3c2)cc1", "assay": "enzyme activity", "setting": "10 µM", "quantity": "remaining activity", "result": "92%"}
{"SMILES": "C=CC(=O)N1CCC(COCC(=O)N2CCN(c3nc(-c4cnc(N)nc4C(F)F)nc(N4CCOC[C@@H]4C)n3)CC2)CC1", "assay": "KINOMEscan", "setting": "1 µM", "scale": "relative to: DMSO control", "quantity": "remaining binding", "result": "100%"}
{"SMILES": "C#Cc1cc(-c2cc(Nc3nc(N[C@@H](C)c4ccc(F)cn4)ncc3Cl)n[nH]2)ccc1C=O", "assay": "enzyme activity, inhibitor", "setting": "0.2 µM", "quantity": "inhibition", "result": "26.5%"}
{"SMILES": "CCN(CC)c1ccc(C2=NNC(=O)CC2C)cc1[N+](=O)[O-] (centres unmarked)", "assay": "enzyme activity, inhibitor", "setting": "10 µM", "scale": "relative to: vehicle", "quantity": "remaining activity", "result": "94%"}
{"SMILES": "COc1cc(F)ccc1-c1ncnc(Nc2cccc(C[S@](C)(=N)=O)c2)n1", "assay": "kinase activity", "setting": "10 µM, with: 10 µM ATP", "quantity": "remaining activity", "result": "91%"}
{"SMILES": "C1=C/COCc2cc(ccc2OCCN2CCCC2)Nc2nccc(n2)-c2cccc(c2)COC/1", "setting": "concentration not given", "quantity": "percent of control", "result": "100%"}
{"SMILES": "Cc1cc(Nc2cc(N3CCN(C)CC3)nc(Sc3ccc(NC(=O)C4CC4)cc3)n2)[nH]n1", "assay": "kinase activity, KinaseProfiler", "setting": "0.03 µM, species human", "scale": "relative to: control", "quantity": "remaining activity", "result": "98%"}
{"SMILES": "CNc1ncc2c(/C=C/C(=O)N3CCC(OC)CC3)nn(Cc3cccc(C(F)(F)F)c3)c2n1", "assay": "kinase activity, inhibitor", "setting": "1 µM", "scale": "relative to: untreated control", "quantity": "remaining activity", "result": "102%"}
{"SMILES": "O=C(NC1CCC1)c1ccc2nc(-c3cccc(NS(=O)(=O)NCCN4CCCCC4)c3)cn2c1", "assay": "enzyme activity", "setting": "10 µM", "quantity": "remaining activity", "result": "100%"}
{"SMILES": "C=CC(=O)N1CCC(C(=O)NCC(=O)N2CCN(c3nc(-c4cnc(N)nc4C(F)F)nc(N4CCOCC4)n3)CC2)CC1", "assay": "KINOMEscan", "setting": "1 µM", "quantity": "remaining binding", "result": "100%"}
{"SMILES": "C[C@@H](c1ccc(-n2cnc3c(N)ncnc32)cc1)N1CCc2nn(C)c(Cc3ccccc3)c2C1=O", "assay": "KINOMEscan", "setting": "0.1 µM", "scale": "relative to: DMSO control", "quantity": "remaining binding", "result": "97%"}
{"note": "Some of these lines once more:"}
{"SMILES": "C[C@@H](c1ccc(-n2cnc3c(N)ncnc32)cc1)N1CCc2nn(C)c(Cc3ccccc3)c2C1=O", "assay": "KINOMEscan", "setting": "0.1 µM", "scale": "relative to: DMSO control", "quantity": "remaining binding", "result": "97%"}
